Experimental data of several laboratories.
Each line is one published result; not all experiments were run side by side. ± gives the spread as reported.
Sequence of UniProt P21397 (whole entry, looked up): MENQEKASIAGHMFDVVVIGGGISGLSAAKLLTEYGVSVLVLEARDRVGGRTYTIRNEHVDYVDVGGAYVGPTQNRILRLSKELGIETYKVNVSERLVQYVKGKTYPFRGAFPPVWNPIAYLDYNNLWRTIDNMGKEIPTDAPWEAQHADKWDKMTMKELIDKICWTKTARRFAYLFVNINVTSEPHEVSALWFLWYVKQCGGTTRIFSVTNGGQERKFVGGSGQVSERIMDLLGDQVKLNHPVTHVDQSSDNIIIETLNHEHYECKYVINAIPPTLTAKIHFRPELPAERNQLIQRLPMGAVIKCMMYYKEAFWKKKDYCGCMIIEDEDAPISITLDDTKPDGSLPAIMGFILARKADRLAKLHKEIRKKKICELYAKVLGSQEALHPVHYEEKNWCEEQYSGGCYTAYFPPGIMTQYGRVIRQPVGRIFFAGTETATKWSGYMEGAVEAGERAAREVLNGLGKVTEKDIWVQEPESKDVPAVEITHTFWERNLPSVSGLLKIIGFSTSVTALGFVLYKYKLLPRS
Sequence of UniProt P08684 (whole entry, looked up): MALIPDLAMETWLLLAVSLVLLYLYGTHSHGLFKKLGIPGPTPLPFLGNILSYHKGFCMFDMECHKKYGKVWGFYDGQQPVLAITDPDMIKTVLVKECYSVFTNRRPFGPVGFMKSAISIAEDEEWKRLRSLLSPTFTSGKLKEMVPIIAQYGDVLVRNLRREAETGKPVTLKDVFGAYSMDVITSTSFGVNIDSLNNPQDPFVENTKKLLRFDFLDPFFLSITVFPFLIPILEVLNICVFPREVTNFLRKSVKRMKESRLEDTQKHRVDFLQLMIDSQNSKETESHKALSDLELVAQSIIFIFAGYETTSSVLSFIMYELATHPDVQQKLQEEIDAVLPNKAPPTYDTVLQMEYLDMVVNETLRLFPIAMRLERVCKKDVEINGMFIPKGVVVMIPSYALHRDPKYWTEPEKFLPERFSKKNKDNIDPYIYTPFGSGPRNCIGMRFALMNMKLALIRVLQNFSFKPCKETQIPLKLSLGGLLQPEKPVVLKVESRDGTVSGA

`NC[C@H](NC(=O)c1ccc(C#Cc2ccccc2)cc1)C(=O)NO` gave a logP of 1.02 (octanol/buffer; pH 11).
The Km of `Nc1nnc(-c2cccc(Cl)c2Cl)c(N)n1` is reported as 200 ± 20 µM (UGT1A, humanized; glucuronidation, Michaelis-Menten kinetics; Tg-UGT1 mice, female, DMSO control group, pooled liver microsomes; 30 min, pH 7.2).
For `Cc1cc(N)c2c(OCC(C)(C)C(=O)NC(C)C)cccc2n1`, “mean revertant colonies” read 25 colonies/plate (Salmonella typhimurium; reverse mutation, plate incorporation; TA98; 500 µg/plate, without S9).
Under “revertant colonies per plate”, `CC[C@H](CO)N(CCN(N=O)[C@H](CC)CO)N=O` is recorded as 14.3 ± 8 (Salmonella typhimurium; plate incorporation; TA1535, water; 150 µg/plate, without S9).
`NCc1cc2c(cc1F)C(=O)N(C1CCC(=O)NC1=O)C2` (stereo not drawn) has a concentration of 11 µM (MAOA (Homo sapiens, UniProt P21397); substrate, LC-MS/MS; recombinant enzyme; 10 µM, 0 h, pH 7.4).
For `CC1(C)OB(c2ccc(CNS(=O)(=O)c3cc(C(=O)Nc4cc(F)c(F)c(F)c4)ccc3F)cc2)OC1(C)C`, the selectivity index was 11.7 (hepatitis B virus; HepAD38; relative to: CC50 over EC50).
`CC1(C)CCC(c2ccc(Cl)cc2)=C(CN2CCN(c3ccc(C(=O)NS(=O)(=O)c4ccc(N[C@H](CCN5CCOCC5)CSc5ccccc5)c(S(=O)(=O)C(F)(F)F)c4)cc3)CC2)C1`: “drug secreted with TRL” 15 ± 3.9% (mouse ileal enteroid monolayers; 50 % saturated solubility, 2 h, basolateral fractions 1-10, together with: oleic acid/monoolein micelles).
`CC1(C)OB(c2cccc(CNS(=O)(=O)c3cc(C(=O)Nc4cc(F)c(F)c(F)c4)ccc3F)c2)OC1(C)C` gave a selectivity index of 12.1 (hepatitis B virus; HepAD38; relative to: CC50 over EC50).
For `COc1cccc(-c2n[nH]c(SCc3ccccn3)n2)c1OC`, “micronucleated binucleated cells” read 1.2% (CHO-WBL; in vitro micronucleus test; 50 µg/mL, 3 h, together with: rat liver S9).
For `Cc1cc(Nc2ccc(S(F)(F)(F)(F)F)cc2)n2nc(C(C)(F)F)nc2n1`, “patients with blurred vision” read 7.7% (Plasmodium falciparum; P. falciparum malaria patients; oral, 400 mg).
`N#Cc1ccc2c(c1)[C@H]1CCCN(C(=O)c3ccc4[nH]cnc4c3)[C@H]1C2`: “median ACTH level” 6.2 pmol/L (human; 160 mg, day 7).
`CC[C@H]1[C@@H](O)[C@@H]2[C@H](CC[C@]3(C)[C@@H]([C@H](C)CCNC(=O)NS(=O)(=O)c4ccc(C(C)(C)C)cc4)CC[C@@H]23)[C@@]2(C)CC[C@@H](O)C[C@@H]12` has a Tlast of 120 h (Cytochrome P450 3A4 (CYP3A4, Homo sapiens, UniProt P08684); human, plasma; geometric mean, together with: fluconazole).
